Published values of several laboratories.
A part holds a random share of what one study measured.
Chain of UniProt Q8N752 (whole entry, looked up): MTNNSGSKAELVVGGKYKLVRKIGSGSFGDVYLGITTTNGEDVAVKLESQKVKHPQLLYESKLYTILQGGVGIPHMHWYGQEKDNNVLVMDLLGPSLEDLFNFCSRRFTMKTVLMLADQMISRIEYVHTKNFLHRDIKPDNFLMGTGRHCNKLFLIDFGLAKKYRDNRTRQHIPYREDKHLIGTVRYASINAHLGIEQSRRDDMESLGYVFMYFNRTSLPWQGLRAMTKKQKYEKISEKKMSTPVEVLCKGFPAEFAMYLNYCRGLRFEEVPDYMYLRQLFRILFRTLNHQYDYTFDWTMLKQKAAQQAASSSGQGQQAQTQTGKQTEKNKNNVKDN
Chain of UniProt Q8TF76 (whole entry, looked up): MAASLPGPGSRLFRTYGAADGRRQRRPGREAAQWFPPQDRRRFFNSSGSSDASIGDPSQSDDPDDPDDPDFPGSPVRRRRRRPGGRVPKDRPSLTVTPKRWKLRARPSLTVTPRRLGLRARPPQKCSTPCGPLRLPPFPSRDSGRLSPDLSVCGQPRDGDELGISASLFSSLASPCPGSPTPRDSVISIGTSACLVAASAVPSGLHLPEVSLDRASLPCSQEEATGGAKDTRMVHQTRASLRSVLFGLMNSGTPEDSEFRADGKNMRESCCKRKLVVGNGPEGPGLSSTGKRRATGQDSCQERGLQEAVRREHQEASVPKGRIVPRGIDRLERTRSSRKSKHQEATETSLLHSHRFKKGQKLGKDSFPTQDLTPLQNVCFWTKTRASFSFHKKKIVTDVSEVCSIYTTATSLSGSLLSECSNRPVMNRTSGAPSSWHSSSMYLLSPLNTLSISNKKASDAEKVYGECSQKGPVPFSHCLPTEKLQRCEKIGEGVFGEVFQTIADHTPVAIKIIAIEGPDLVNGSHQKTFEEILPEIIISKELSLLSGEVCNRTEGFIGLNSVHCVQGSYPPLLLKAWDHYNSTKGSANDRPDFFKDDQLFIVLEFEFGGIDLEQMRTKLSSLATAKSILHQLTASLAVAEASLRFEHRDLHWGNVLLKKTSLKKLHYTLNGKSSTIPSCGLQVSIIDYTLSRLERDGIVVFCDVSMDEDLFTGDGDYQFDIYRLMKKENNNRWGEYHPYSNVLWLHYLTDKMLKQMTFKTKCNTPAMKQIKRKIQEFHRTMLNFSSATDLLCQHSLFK
Chain of UniProt Q92630 (whole entry, looked up): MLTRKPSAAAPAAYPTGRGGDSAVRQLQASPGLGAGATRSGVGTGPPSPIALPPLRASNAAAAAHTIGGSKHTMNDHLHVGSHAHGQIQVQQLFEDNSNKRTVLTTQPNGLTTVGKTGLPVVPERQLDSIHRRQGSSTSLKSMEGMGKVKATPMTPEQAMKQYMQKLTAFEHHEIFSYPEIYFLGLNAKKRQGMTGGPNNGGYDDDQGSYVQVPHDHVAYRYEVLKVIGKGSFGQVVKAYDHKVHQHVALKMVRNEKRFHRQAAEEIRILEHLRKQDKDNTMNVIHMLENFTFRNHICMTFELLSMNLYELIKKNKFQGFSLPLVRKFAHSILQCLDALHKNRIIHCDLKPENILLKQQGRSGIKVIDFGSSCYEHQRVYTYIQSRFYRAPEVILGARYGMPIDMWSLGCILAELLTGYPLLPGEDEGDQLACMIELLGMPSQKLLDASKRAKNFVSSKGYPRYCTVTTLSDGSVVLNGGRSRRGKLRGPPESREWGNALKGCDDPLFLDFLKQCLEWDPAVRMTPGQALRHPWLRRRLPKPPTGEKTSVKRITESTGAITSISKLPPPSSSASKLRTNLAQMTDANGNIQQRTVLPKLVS
Chain of UniProt Q96BR1 (whole entry, looked up): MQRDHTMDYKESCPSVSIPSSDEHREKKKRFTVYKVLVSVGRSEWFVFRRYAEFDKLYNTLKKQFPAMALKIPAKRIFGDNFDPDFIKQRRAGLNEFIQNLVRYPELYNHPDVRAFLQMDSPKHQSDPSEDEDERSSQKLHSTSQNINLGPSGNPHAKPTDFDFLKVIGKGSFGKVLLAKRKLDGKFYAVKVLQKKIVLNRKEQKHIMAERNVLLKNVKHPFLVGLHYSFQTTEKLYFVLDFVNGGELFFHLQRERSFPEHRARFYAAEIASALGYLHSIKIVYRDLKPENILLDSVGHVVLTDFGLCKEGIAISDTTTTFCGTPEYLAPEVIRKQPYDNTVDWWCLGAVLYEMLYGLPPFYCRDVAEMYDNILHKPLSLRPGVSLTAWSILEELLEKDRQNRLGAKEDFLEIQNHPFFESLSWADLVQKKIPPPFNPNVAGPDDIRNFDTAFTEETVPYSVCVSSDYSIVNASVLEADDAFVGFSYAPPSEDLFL
Chain of UniProt Q7L7X3 (whole entry, looked up): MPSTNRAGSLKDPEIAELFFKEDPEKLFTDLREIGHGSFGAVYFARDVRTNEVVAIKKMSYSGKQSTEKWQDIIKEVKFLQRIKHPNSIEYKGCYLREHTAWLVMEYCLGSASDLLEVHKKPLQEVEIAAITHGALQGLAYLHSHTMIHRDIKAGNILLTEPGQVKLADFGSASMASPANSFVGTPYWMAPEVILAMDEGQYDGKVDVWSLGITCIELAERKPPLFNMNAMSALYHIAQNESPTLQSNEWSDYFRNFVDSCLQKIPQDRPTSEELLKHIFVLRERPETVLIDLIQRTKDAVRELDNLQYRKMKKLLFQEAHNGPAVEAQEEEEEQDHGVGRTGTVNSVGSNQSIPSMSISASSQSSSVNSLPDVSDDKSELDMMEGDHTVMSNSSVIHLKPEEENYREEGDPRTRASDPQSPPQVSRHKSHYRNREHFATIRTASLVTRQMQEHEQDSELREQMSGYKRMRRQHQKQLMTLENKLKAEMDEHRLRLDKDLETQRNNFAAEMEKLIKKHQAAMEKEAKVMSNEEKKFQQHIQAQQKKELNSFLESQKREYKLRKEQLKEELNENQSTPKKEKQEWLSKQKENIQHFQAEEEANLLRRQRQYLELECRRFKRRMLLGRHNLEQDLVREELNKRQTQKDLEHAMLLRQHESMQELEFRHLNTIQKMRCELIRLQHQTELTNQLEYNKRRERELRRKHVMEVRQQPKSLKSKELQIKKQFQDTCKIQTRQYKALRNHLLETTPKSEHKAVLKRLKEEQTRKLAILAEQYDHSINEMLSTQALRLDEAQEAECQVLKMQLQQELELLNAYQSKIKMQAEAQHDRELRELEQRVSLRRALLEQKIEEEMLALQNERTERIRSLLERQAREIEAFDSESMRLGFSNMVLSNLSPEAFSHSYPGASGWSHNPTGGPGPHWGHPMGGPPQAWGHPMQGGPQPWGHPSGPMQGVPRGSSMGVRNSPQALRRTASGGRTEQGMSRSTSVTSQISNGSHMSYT
Chain of UniProt Q9H0K1 (whole entry, looked up): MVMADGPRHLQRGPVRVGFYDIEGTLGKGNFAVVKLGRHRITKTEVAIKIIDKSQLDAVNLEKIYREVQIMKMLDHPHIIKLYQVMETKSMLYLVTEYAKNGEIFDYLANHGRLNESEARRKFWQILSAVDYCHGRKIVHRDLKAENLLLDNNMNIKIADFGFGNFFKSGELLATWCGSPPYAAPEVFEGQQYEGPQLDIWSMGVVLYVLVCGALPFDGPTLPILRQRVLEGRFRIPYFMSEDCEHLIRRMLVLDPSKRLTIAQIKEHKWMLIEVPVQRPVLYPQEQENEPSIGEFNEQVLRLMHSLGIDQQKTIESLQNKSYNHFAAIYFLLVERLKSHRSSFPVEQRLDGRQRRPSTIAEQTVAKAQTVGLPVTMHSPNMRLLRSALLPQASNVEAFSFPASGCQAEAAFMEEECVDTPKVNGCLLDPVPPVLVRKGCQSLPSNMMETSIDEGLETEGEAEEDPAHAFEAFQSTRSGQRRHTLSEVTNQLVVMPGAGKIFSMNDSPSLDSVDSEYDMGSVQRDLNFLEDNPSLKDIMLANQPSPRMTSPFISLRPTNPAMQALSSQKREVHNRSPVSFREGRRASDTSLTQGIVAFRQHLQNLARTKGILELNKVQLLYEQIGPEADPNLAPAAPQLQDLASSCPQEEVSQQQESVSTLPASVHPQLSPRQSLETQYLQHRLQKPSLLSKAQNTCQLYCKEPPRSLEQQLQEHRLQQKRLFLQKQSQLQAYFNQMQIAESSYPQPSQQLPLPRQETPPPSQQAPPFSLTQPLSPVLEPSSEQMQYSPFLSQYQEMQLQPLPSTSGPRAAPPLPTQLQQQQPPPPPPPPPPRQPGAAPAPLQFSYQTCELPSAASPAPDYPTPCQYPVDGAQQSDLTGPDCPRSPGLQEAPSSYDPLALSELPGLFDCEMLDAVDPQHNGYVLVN
Chain of UniProt O75716 (whole entry, looked up): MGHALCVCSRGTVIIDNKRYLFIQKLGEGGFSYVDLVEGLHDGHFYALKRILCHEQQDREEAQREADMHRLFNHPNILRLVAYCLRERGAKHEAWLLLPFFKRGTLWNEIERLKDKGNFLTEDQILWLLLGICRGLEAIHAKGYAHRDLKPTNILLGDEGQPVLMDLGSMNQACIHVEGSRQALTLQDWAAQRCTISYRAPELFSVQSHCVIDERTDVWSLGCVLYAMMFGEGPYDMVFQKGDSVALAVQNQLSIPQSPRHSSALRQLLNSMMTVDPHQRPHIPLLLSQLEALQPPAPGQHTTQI

Set 1
SMILES: Cc1ccc(NC(=O)c2ccc(CN3CCN(C)CC3)cc2)cc1Nc1nccc(-c2cccnc2)n1
Observed: enzyme activity
Mode: inhibitor
Tested at: 0.5 µM
Baseline: control
target | remaining activity [%]
HCK (Homo sapiens, UniProt P08631) | 84.9
PLK1 (Homo sapiens, UniProt P53350) | 100
MAP4K5 (Homo sapiens, UniProt Q9Y4K4) | 102
ACVR1 (Homo sapiens, UniProt Q04771) | 101
FGFR2 (Homo sapiens, UniProt P21802) | 100
SGK3 (Homo sapiens, UniProt Q96BR1) | 104
TAOK1 (Homo sapiens, UniProt Q7L7X3) | 101
PRKD3 (Homo sapiens, UniProt O94806) | 91.3
DYRK2 (Homo sapiens, UniProt Q92630) | 99.2
MAP3K9 (Homo sapiens, UniProt P80192) | 102
INSRR (Homo sapiens, UniProt P14616) | 108
ULK1 (Homo sapiens, UniProt O75385) | 93.6
NTRK2 (Homo sapiens, UniProt Q16620) | 95.8
RAF1 (Homo sapiens, UniProt P04049) | 47.9
DSTYK (Homo sapiens, UniProt Q6XUX3) | 97.7
VRK1 (Homo sapiens, UniProt Q99986) | 96.7
RIPK2 (Homo sapiens, UniProt O43353) | 102

Set 2
Compound: C[C@H](c1ccc(F)cc1)N(Cc1cccc(C(=O)O)c1)C(=O)c1cnc2ccccc2c1
Observed: cell-free assay
Method: competition with immobilised ligand
Tested at: 1 µM
target | remaining binding [%]
CSNK1A1L (Homo sapiens, UniProt Q8N752) | 100
WEE1 (Homo sapiens, UniProt P30291) | 96
STK16 (Homo sapiens, UniProt O75716) | 100
MARK4 (Homo sapiens, UniProt Q96L34) | 100
EGFR (Homo sapiens, UniProt P00533, del747-750/T751S) | 100
SRC (Homo sapiens, UniProt P12931) | 100
AKT2 (Homo sapiens, UniProt P31751) | 87
TTK (Homo sapiens, UniProt P33981) | 100
Tyrosine-protein kinase ABL1, non-phosphorylated (ABL1, Homo sapiens, UniProt P00519, F317L) | 91
DYRK1B (Homo sapiens, UniProt Q9Y463) | 100
SIK2 (Homo sapiens, UniProt Q9H0K1) | 96
HASPIN (Homo sapiens, UniProt Q8TF76) | 100
MELK (Homo sapiens, UniProt Q14680) | 100

Single results of other studies
SMILES | tested on | assay | test system | setting | quantity | value
C[C@H]1O[C@@H](O[C@H]2[C@@H](O)C[C@H](O[C@H]3[C@@H](O)C[C@H](O[C@H]4CC[C@@]5(C)[C@H](CC[C@@H]6[C@@H]5C[C@@H](O)[C@]5(C)[C@@H](C7=CC(=O)OC7)CC[C@]65O)C4)O[C@@H]3C)O[C@@H]2C)C[C@H](O)[C@@H]1O | Caco-2 | – | – | 10 µM, 120 min, basolateral to apical | recovery | 94.1%
O=C(Nc1ccccc1)c1cccc(Oc2ccc3nccn3n2)c1 | DDR1b human | DDR1 autophosphorylation, Western blot | HeLa transfected with DDR1b | concentration not given, 24 h, with: collagen I | inhibition | no inhibition
CC(C)NCC(O)COc1cccc2ccccc12 (stereo not shown) | Caco-2 | – | – | 10 µM, 120 min, basolateral to apical | recovery | 98.3%
CC(C)n1cnc(-c2ccc(F)cc2)c1-c1ncc(C(=O)Nc2ccc(N3CCN(C)CC3)cc2)[nH]1 | – | – | human, idiopathic pulmonary fibrosis | 60 mg once daily, trial, treatment-emergent | patients with increased neutrophil | 0%

Excerpt of the above (set 1):
target | remaining activity [%]
ULK1 (Homo sapiens, UniProt O75385) | 93.6
NTRK2 (Homo sapiens, UniProt Q16620) | 95.8
RAF1 (Homo sapiens, UniProt P04049) | 47.9
DSTYK (Homo sapiens, UniProt Q6XUX3) | 97.7
VRK1 (Homo sapiens, UniProt Q99986) | 96.7
RIPK2 (Homo sapiens, UniProt O43353) | 102
